Experimental data collected from several papers.
Values joined by “and” are separate records of one study, mostly repeats; a detail may differ. ± marks the error that the study gave.
Cell line: A549

Structure (SMILES)	test	setting	scale	endpoint	value
CCCc1cc(OC)c(OC)c(OC)c1OC	cell growth or viability, MTT	72 h	–	GI50	> 250 µM
CC(C)C[C@@H](NC(=O)[C@@H](C)NC(=O)[C@@H](CC(C)C)NC(=O)[C@@H](CCCCN)NC(=O)[C@H](N)CCCCN)C(=O)N[C@H](C)C(=O)N[C@H](CC(C)C)C(=O)N[C@H](C)C(=O)N[C@H](CCCCN)C(=O)N[C@H](CCCCN)C(=O)N[C@H](Cc1c[nH]c2ccccc12)C(=O)N[C@H](CC(C)C)C(=O)N[C@H](C)C(=O)N[C@H](CC(C)C)C(=O)N[C@H](C)C(=O)N[C@H](CCCCN)C(=O)N[C@H](CCCCN)C(=O)N[C@H](CC(C)C)C(=O)N[C@H](C)C(=O)N[C@H](CC(C)C)C(=O)N[C@H](C)C(=O)N[C@H](CC(C)C)C(=O)N[C@H](C)C(=O)N[C@H](CCCCN)C(=O)N[C@H](CCCCN)C(N)=O	cytotoxicity, MTT	four hours, 37 °C, serum-free medium	–	EC50	5.23 ± 0.35 µM
COc1c(C)cc2c(c1OC)OCO2	cell growth or viability, MTT	72 h	–	GI50	> 250 µM
Cc1cccc(-c2cccc(C)n2)n1.[Cl-].[Cl-].[Ru+2].c1ccc(-c2ccccn2)nc1.c1ccc(-c2ccccn2)nc1	resazurin	–	relative to: dark EC50 over light EC50	phototoxicity index	> 36.1 and 36.1
CC/C=C\C/C=C\C/C=C\C/C=C\C/C=C\C/C=C\CCC(=O)Nc1ccn(C2OC(CO)C(O)C2(F)F)c(=O)n1 (centres unmarked)	NCI-60 screen	–	–	CC50	43.8 µM
COc1cc(/C=C(\C#N)C(=O)Nc2nnc(C(F)(F)F)s2)ccc1OC(=O)N1CCN(C(=O)CCCC(=O)NCCCC[C@@H]2NC(=O)[C@@H](Cc3ccc(O)cc3)NC(=O)[C@H](CC(=O)O)NC(=O)CNC(=O)[C@H](CCCNC(=N)N)NC2=O)CC1	cell growth or viability, MTT	–	–	GI50	32 µM
CC(C)C[C@@H](NC(=O)[C@@H](C)NC(=O)[C@@H](CCCCN)NC(=O)[C@@H](CC(C)C)NC(=O)[C@@H](C)NC(=O)[C@H]1CCCN1C(=O)[C@@H](CC(C)C)NC(=O)[C@@H](Cc1c[nH]c2ccccc12)NC(=O)[C@@H](CCCCN)NC(=O)[C@@H](C)NC(=O)[C@@H](CC(C)C)NC(=O)[C@@H](C)NC(=O)[C@@H](Cc1c[nH]cn1)NC(=O)[C@@H](CCCCN)NC(=O)[C@@H](CC(C)C)NC(=O)[C@@H](C)NC(=O)[C@@H](CCCCN)NC(=O)[C@H](N)CCCCN)C(=O)N[C@H](C)C(=O)N[C@H](Cc1c[nH]cn1)C(=O)N[C@H](CCCCN)C(=O)N[C@H](CC(C)C)C(=O)N[C@H](C)C(=O)N[C@H](CCCCN)C(=O)N[C@H](CCCCN)C(N)=O	cytotoxicity, MTT	four hours, 37 °C, serum-free medium	–	EC50	7.58 ± 0.42 µM
CCCc1cc(OC)c2c(c1)OCO2	cell growth or viability, MTT	72 h	–	GI50	> 250 µM
Cc1[nH]c(=O)c(CNC(=O)c2ccc(C(F)(F)F)cc2)c2c1CCCC2	MTT	–	relative to: A549 IC50 over M. tuberculosis MIC	selectivity index	> 40
CC1=CC[C@]2(C(=O)O[C@H]3OC[C@@H](O)[C@@H](O)[C@@H]3OS(=O)(=O)O)CC[C@]3(C)C(CCC4[C@@]5(C)CC[C@H](O)C(C)(C)C5CC[C@]43C)C2[C@H]1C (some centres unmarked)	annexin V/PI flow cytometry	concentration not given, 48 h	relative to: untreated	necrotic cells	4.6 fold
C[P+](c1ccccc1)(c1ccccc1)c1ccccc1	cell growth or viability, MTT	72 h	–	GI50	1.32 µM
CC(C)C[C@@H](NC(=O)[C@@H](C)NC(=O)[C@@H](CCCCN)NC(=O)[C@H](N)CCCCN)C(=O)N[C@H](C)C(=O)N[C@H](CCCCN)C(=O)N[C@H](C)C(=O)N[C@H](CC(C)C)C(=O)N[C@H](CCCCN)C(=O)N[C@H](Cc1c[nH]cn1)C(=O)N[C@H](Cc1c[nH]c2ccccc12)C(=O)N[C@H](CC(C)C)C(=O)N1CCC[C@@H]1C(=O)N[C@H](C)C(=O)N[C@H](CC(C)C)C(=O)N[C@H](Cc1c[nH]cn1)C(=O)N[C@H](CCCCN)C(=O)N[C@H](CC(C)C)C(=O)N[C@H](C)C(=O)N[C@H](CCCCN)C(=O)N[C@H](C)C(=O)N[C@H](CC(C)C)C(=O)N[C@H](C)C(=O)N[C@H](CCCCN)C(=O)N[C@H](CCCCN)C(N)=O	cytotoxicity, MTT	four hours, 37 °C, serum-free medium	–	EC50	6.5 ± 0.37 µM
COc1ccc(NC(=O)c2ccc(NC(=O)CN3C(=O)S/C(=C\c4ccccc4OC)C3=O)cc2)cc1	MTT	–	relative to: IC50 Vero over IC50 A549	selectivity index	4.97
CCCCCCCCCCCC[C@@H](O)[C@H]1CC[C@H]([C@H](O)CCCCCCCCCCCCCCC2=C[C@H](C)OC2=O)O1	Annexin V/7-AAD flow cytometry	concentration not given, highest level	–	apoptotic cells	15%
CC(C)[C@H]1NC(=O)[C@H](CO)NC(=O)c2cc3cc(c2)C(=O)NC[C@H](NC(=O)[C@H](Cc2c[nH]cn2)NC(=O)[C@H](Cc2ccc(C(F)(F)P(=O)(O)O)cc2)NC(=O)[C@@H]2CCCN2C1=O)C(=O)N[C@@H](Cc1ccccc1)C(=O)N[C@@H](Cc1ccc2ccccc2c1)C(=O)N[C@@H](CCCNC(=N)N)C(=O)N[C@@H](CCCNC(=N)N)C(=O)N[C@@H](CCCNC(=N)N)C(=O)N[C@@H](CCCNC(=N)N)C(=O)N[C@H](C(=O)N[C@@H](CCCCN)C(N)=O)CNC3=O	tyrosine phosphorylation increase, anti-pY immunoblot	2 h	–	lowest effective concentration	8 nM
CCCCN(CCCC)CC(O)COc1c2ccoc2c(OC)c2oc(CC)cc(=O)c12 (centres unmarked)	MTT	–	relative to: IC50 HaCaT over IC50 A549	selectivity index	1.65
COc1cc(C)c(OC)c(OC)c1OC	cell growth or viability, MTT	72 h	–	GI50	> 250 µM
CCOP(=O)(OCC)OCCCCOC(=O)CC1=C(C)C(=Cc2ccc([S+](C)[O-])cc2)c2ccc(F)cc21 (centres unmarked)	cell proliferation, BrdU incorporation	IC50, 24 h	–	inhibition	94%
CC(C)=CCC/C(C)=C/C[P+](c1ccccc1)(c1ccccc1)c1ccccc1	cell growth or viability, MTT	72 h	–	GI50	0.58 µM
CCCCCCCCC=CCCCCCCCC(=O)OC(COC(=O)Cc1c(C)n(C(=O)c2ccc(Cl)cc2)c2ccc(OC)cc12)COP(=O)([O-])OCC[N+](C)(C)C (centres unmarked)	SRB	–	relative to: MCF-10A IC50 over A549 IC50	selectivity index	4.31
CC(C)C(O)C(NC(=O)[C@H](Cc1ccc(O)cc1)NC(=O)C(Cc1ccc(O)c(Cl)c1)[N+](C)(C)C)C(=O)N[C@@H](C)C(=O)O (some centres unmarked)	–	100 µM	–	antiproliferative activity	inactive
C=CCc1cc2c(c(OC)c1OC)OCO2	cell growth or viability, MTT	72 h	–	GI50	> 250 µM
COc1ccccc1/C=C1\SC(=O)N(CC(=O)Nc2ccc(C(=O)Nc3ccc([N+](=O)[O-])cc3)cc2)C1=O	MTT	–	relative to: IC50 Vero over IC50 A549	selectivity index	16.4

Excerpt of the above:
Structure (SMILES)	test	setting	scale	endpoint	value
CC(C)C[C@@H](NC(=O)[C@@H](C)NC(=O)[C@@H](CCCCN)NC(=O)[C@H](N)CCCCN)C(=O)N[C@H](C)C(=O)N[C@H](CCCCN)C(=O)N[C@H](C)C(=O)N[C@H](CC(C)C)C(=O)N[C@H](CCCCN)C(=O)N[C@H](Cc1c[nH]cn1)C(=O)N[C@H](Cc1c[nH]c2ccccc12)C(=O)N[C@H](CC(C)C)C(=O)N1CCC[C@@H]1C(=O)N[C@H](C)C(=O)N[C@H](CC(C)C)C(=O)N[C@H](Cc1c[nH]cn1)C(=O)N[C@H](CCCCN)C(=O)N[C@H](CC(C)C)C(=O)N[C@H](C)C(=O)N[C@H](CCCCN)C(=O)N[C@H](C)C(=O)N[C@H](CC(C)C)C(=O)N[C@H](C)C(=O)N[C@H](CCCCN)C(=O)N[C@H](CCCCN)C(N)=O	cytotoxicity, MTT	four hours, 37 °C, serum-free medium	–	EC50	6.5 ± 0.37 µM
COc1ccc(NC(=O)c2ccc(NC(=O)CN3C(=O)S/C(=C\c4ccccc4OC)C3=O)cc2)cc1	MTT	–	relative to: IC50 Vero over IC50 A549	selectivity index	4.97
